Measurements pooled from the literature.
Protocols differ between the studies behind these lines.
Cell line: CCRF-CEM
Observed: cell growth or viability

`CC1OC(OCC2OC(Oc3cc(O)c4c(=O)cc(-c5ccc(O)c(O)c5)oc4c3)C(O)C(O)C2O)C(O)C(O)C1O` (centres unmarked) gave an IC50 of 64.7 µM (resazurin; 72 h).
For `C[C@H]1C(OC(=O)CCC(=O)O)O[C@@H]2O[C@@]3(C)CC[C@H]4[C@H](C)CCC1[C@@]24OO3` (some centres unmarked), the IC50 was 0.55 µM (XTT).
For `O=C(Nc1ncnc2c1ncn2[C@@H]1O[C@H](CO)[C@@H](O)[C@H](F)[C@H]1O)c1ccccc1`, the IC50 was 120 µM.
The IC50 of `O=[N+]([O-])c1ccc(NC(=S)N/N=C/c2cccs2)cc1` is reported as 27 µM.
The IC50 of `C=C1C(=O)OC2C1CCC1(C)CC1CCC1(C)OC21` (centres unmarked) is reported as 2 µM (resazurin).
`Nc1ncnc2c1ncn2[C@@H]1O[C@H](CSSc2ccccn2)[C@@H](O)[C@H](F)[C@H]1O` has an IC50 of 228 µM.
With `CC1(C)CCC(CN2CCN(c3ccc(C(=O)NS(=O)(=O)c4ccc(NCC5COCCO5)c([N+](=O)[O-])c4)c(N4CCCOc5nc6[nH]ccc6cc54)c3)CC2)=C(c2ccc(Cl)cc2)C1` (centres unmarked) the IC50 was 0.98 µM (ATP luminescence; 24 h).
The IC50 of `COc1cc(-c2cc(=O)c3c(O)cc(OC4OC(COC5OC(C)C(O)C(O)C5O)C(O)C(O)C4O)cc3o2)ccc1O` (centres unmarked) is reported as 51.6 µM (resazurin; 72 h).
For `O=c1ccn([C@@H]2O[C@H](CSSC[C@H]3O[C@@H](n4ccc(=O)[nH]c4=O)[C@H](O)[C@@H](F)[C@@H]3O)[C@@H](O)[C@H](F)[C@H]2O)c(=O)[nH]1`, the IC50 was over 500 µM.
`COc1ccc(C[C@H]2COC(=O)[C@@H]2Cc2ccc(OCC(=O)Nc3ccc(C(=O)NO)cc3)c(OC)c2)cc1OC` has an IC50 of over 5 µM (CCK-8; 48 h).
`OC[C@H]1[C@@H](O)[C@@H](O)CN1CCc1ccccc1` gave an IC50 of 95 µM (MTS; 72 h).
The IC50 of `COc1ccc(C[C@H]2COC(=O)[C@@H]2Cc2ccc(OCCCCCCCCCC(=O)NO)c(OC)c2)cc1OC` is reported as over 5 µM (CCK-8; 48 h).
`O=c1[nH]c(=O)n([C@@H]2O[C@H](CSSC[C@H]3O[C@@H](n4cc(F)c(=O)[nH]c4=O)[C@H](O)[C@@H](F)[C@@H]3O)[C@@H](O)[C@H](F)[C@H]2O)cc1F` gave an IC50 of over 500 µM.
`C[C@H]1C(NCCS)O[C@@H]2O[C@@]3(C)CC[C@H]4[C@H](C)CCC1[C@@]24OO3` (some centres unmarked) gave an IC50 of 0.86 µM (XTT).

Some of these lines once more:
With `CC1(C)CCC(CN2CCN(c3ccc(C(=O)NS(=O)(=O)c4ccc(NCC5COCCO5)c([N+](=O)[O-])c4)c(N4CCCOc5nc6[nH]ccc6cc54)c3)CC2)=C(c2ccc(Cl)cc2)C1` (centres unmarked) the IC50 was 0.98 µM (ATP luminescence; 24 h).
